# Published values of several laboratories.
# Protocols differ between the studies behind these lines. “And” joins repeats or separate records; there may be more than shown. ± gives the spread as reported.
# PIH1D1: PIH1D1 1-180 (Homo sapiens, UniProt Q9NWS0)
# Sequence of UniProt Q9NWS0 (whole entry, looked up): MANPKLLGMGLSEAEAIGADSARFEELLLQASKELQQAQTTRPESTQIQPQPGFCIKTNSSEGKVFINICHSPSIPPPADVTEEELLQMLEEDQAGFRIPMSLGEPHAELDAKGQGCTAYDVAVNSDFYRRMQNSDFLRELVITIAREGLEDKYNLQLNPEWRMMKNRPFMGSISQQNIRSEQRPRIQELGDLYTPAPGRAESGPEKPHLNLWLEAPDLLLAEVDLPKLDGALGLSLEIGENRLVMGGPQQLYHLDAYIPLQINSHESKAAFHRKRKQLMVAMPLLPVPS
# T1: Tab1 residues 384-412 (Mus musculus); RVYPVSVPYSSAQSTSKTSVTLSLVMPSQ
# B1: Mapk14 I275G (Mus musculus, UniProt P47811); chain MSQERPTFYRQELNKTIWEVPERYQNLSPVGSGAYGSVCAAFDTKTGHRVAVKKLSRPFQSIIHAKRTYRELRLLKHMKHENVIGLLDVFTPARSLEEFNDVYLVTHLMGADLNNIVKCQKLTDDHVQFLIYQILRGLKYIHSADIIHRDLKPSNLAVNEDCELKILDFGLARHTDDEMTGYVATRWYRAPEIMLNWMHYNQTVDIWSVGCIMAELLTGRTLFPGTDHIDQLKLILRLVGTPGAELLKKISSESARNYIQSLAQMPKMNFANVFGGANPLAVDLLEKMLVLDSDKRITAAQALAHAYFAQYHDPDDEPVADPYDQSFESRDLLIDEWKSLTYDEVISFVPPPLDQEEMES
# B2: ING2 189-262 Y208A (Arabidopsis thaliana, UniProt B3H615); sequence looked up; chain NRKDLMPIEEQPIDPNEPTACVCHQVSFGDMIACDNENCQGGEWFHYTCVGLTPETRFKGKWYCPTCRLLPQSH
# B3: LMNA 389-572 (Homo sapiens, UniProt P02545-2); sequence looked up; chain LSPSPTSQRSRGRASSHSSQTQGGGSVTKKRKLESTESRSSFSQHARTSGRVAVEEVDEEGKFVRLRNKSNEDQSMGNWQIKRQNGDDPLLTYRFPPKFTLKAGQVVTIWAAGAGATHSPPTDLVWKAQNTWGCGNSLRTALINSTGEEVAMRKLVRSVTVVEDDEDEDGDDLLHHHHVSGSRR
# B4: human HSP60; sequence looked up; chain AKDVKFGADARALMLQGVDLLADAVAVTMGPKGRTVIIEQSWGSPKVTKDGVTVAKSIDLKDKYKNIGAKLVQDVANNTNEEAGDGTTTATVLARSIAKEGFEKISKGANPVEIRRGVMLAVDAVIAELKKQSKPVTTPEEIAQVATISANGDKEIGNIISDAMKKVGRKGVITVKDGKTLNDELEIIEGMKFDRGYISPYFINTSKGQKCEFQDAYVLLSEKKISSIQSIVPALEIANAHRKPLVIIAEDVDGEALSTLVLNRLKVGLQVVAVKAPGFGDNRKNQLKDMAIATGGAVFGEEGLTLNLEDVQPHDLGKVGEVIVTKDDAMLLKGKGDKAQIEKRIQEIIEQLDVTTSEYEKEKLNERLAKLSDGVAVLKVGGTSDVEVNEKKDRVTDALNATRAAVEEGIVLGGGCALLRCIPALDSLTPANEDQKIGIEIIKRTLKIPAMTIAKNAGVEGSLIVEKIMQSSSEVGYDAMAGDFVNMVEKGIIDPTKVVRTALLDAAGVASLLTTAEVVVTEIPKEEKDPGMGAMGGMGGGMGGGMF
# B5: ING1 163-234 E202A (Arabidopsis thaliana, UniProt Q9LIQ6); sequence looked up; chain TSSNMDLDLPVDPNEPTYCICNQVSFGEMVACDNNACKIAWFHFGCVGLKEQPKGKWYCPECATVKKSRKGR
# B6: ING1 163-234 M191A (Arabidopsis thaliana, UniProt Q9LIQ6); sequence looked up; chain TSSNMDLDLPVDPNEPTYCICNQVSFGEAVACDNNACKIEWFHFGCVGLKEQPKGKWYCPECATVKKSRKGR
# B7: SEPTIN7 (Homo sapiens, UniProt Q16181); sequence looked up; chain MSVSARSAAAEERSVNSSTMVAQQKNLEGYVGFANLPNQVYRKSVKRGFEFTLMVVGESGLGKSTLINSLFLTDLYSPEYPGPSHRIKKTVQVEQSKVLIKEGGVQLLLTIVDTPGFGDAVDNSNCWQPVIDYIDSKFEDYLNAESRVNRRQMPDNRVQCCLYFIAPSGHGLKPLDIEFMKRLHEKVNIIPLIAKADTLTPEECQQFKKQIMKEIQEHKIKIYEFPETDDEEENKLVKKIKDRLPLAVVGSNTIIEVNGKRVRGRQYPWGVAEVENGEHCDFTILRNMLIRTHMQDLKDVTNNVHYENYRSRKLAAVTYNGVDNNKNKGQLTKSPLAQMEEERREHVAKMKKMEMEMEQVFEMKVKEKVQKLKDSEAELQRRHEQMKKNLEAQHKELEEKRRQFEDEKANWEAQQRILEQQNSSRTLEKNKKKGKIF
# B8: BAK1 22-186 G126R (Homo sapiens, UniProt Q16611); chain ASEEQVAQDTEEVFRSYVFYRHQQEQEAEGVAAPADPEMVTLPLQPSSTMGQVGRQLAIIGDDINRRYDSEFQTMLQHLQPTAENAYEYFTKIATSLFESGINWRRVVALLGFGYRLALHVYQHGLTGFLGQVTRFVVDFMLHHCIARWIAQRGGWVAALNLGNG
# B9: PVRIG 41-172 (Homo sapiens, UniProt Q6DKI7); sequence looked up; chain TPEVWVQVRMEATELSSFTIRCGFLGSGSISLVTVSWGGPNGAGGTTLAVLHPERGIRQWAPARQARWETQSSISLILEGSGASSPCANTTFCCKFASFPEGSWEACGSLPPSSDPGLSAPPTPAPILRADL
# B10: mdfA (Bacillus subtilis, UniProt O31597); chain MLFLHDVWVNWFEGEENGYNVCHFHEWRKEDTVELLDQVPLLRVPSVLFHYIENDLSELPKGLLEDVHQKSYIRKNHERTKLEYCFVVTDGIGILAVDTIGYTIPVRKSRLIPRQEQLVYEMVKDVEPETYEFEPKKLESSKEYHILSLAPEHVRGLTRKERQIKQLMFMALDQLKGLKNRAEIGYWYTEWNPHMYEQIKRMSFEEIWDMLYNETIEGWSDKHLAFCENLIKGQPFFEKLWEMENESKVN
# B11: TRIP13, human; sequence looked up; chain MDEAVGDLKQALPCVAESPTVHVEVHQRGSSTAKKEDINLSVRKLLNRHNIVFGDYTWTEFDEPFLTRNVQSVSIIDTELKVKDSQPIDLSACTVALHIFQLNEDGPSSENLEEETENIIAANHWVLPAAEFHGLWDSLVYDVEVKSHLLDYVMTTLLFSDKNVNSNLITWNRVVLLHGPPGTGKTSLCKALAQKLTIRLSSRYRYGQLIEINSHSLFSKWFSESGKLVTKMFQKIQDLIDDKDALVFVLIDEVESLTAARNACRAGTEPSDAIRVVNAVLTQIDQIKRHSNVVILTTSNITEKIDVAFVDRADIKQYIGPPSAAAIFKIYLSCLEELMKCQIIYPRQQLLTLRELEMIGFIENNVSKLSLLLNDISRKSEGLSGRVLRKLPFLAHALYVQAPTVTIEGFLQALSLAVDKQFEERKKLAAYI
# Sequence of UniProt P20936 (whole entry, unmodified, looked up): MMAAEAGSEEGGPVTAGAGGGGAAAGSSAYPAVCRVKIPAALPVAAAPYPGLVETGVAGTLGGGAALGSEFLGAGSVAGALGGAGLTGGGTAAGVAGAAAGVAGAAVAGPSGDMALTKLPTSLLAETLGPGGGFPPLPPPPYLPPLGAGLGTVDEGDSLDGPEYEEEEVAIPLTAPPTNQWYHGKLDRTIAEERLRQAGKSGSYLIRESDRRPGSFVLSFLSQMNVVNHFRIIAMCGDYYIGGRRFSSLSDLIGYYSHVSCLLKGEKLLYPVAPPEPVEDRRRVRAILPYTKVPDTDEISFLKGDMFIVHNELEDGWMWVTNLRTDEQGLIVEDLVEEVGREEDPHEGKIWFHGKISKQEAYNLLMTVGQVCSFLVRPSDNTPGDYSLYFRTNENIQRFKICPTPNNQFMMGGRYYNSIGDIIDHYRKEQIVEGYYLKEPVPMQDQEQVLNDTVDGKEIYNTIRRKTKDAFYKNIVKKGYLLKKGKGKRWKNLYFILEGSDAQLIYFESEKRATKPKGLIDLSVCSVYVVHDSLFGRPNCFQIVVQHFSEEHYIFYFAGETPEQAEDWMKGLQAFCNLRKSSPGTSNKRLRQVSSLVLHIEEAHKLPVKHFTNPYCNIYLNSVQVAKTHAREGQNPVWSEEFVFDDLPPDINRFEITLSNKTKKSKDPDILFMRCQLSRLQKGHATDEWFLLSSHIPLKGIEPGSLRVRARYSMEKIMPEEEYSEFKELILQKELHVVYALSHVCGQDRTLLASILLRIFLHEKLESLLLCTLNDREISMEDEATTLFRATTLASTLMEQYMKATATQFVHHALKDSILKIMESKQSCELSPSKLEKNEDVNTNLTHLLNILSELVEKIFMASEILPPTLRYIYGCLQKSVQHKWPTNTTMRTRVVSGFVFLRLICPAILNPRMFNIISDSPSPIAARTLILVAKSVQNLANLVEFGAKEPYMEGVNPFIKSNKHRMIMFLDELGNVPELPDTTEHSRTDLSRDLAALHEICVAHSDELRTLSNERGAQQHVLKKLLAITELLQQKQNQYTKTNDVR
# Sequence of UniProt O95619 (whole entry, looked up): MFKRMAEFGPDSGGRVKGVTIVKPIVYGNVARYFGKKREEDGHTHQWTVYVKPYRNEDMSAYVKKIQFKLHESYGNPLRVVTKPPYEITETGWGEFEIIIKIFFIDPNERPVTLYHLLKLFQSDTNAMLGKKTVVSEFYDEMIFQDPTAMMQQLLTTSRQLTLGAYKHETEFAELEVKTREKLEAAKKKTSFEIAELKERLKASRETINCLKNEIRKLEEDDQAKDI
# Sequence of UniProt Q8RWU7 (whole entry, looked up): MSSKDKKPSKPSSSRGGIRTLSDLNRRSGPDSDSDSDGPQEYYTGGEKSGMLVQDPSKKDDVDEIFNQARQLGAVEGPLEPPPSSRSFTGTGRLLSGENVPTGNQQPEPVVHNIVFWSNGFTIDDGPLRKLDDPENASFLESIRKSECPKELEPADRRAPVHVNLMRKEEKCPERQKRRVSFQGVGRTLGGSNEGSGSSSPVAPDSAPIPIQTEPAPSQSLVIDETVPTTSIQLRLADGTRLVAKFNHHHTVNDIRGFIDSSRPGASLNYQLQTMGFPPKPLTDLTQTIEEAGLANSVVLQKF
# Sequence of UniProt Q8H159 (whole entry, looked up): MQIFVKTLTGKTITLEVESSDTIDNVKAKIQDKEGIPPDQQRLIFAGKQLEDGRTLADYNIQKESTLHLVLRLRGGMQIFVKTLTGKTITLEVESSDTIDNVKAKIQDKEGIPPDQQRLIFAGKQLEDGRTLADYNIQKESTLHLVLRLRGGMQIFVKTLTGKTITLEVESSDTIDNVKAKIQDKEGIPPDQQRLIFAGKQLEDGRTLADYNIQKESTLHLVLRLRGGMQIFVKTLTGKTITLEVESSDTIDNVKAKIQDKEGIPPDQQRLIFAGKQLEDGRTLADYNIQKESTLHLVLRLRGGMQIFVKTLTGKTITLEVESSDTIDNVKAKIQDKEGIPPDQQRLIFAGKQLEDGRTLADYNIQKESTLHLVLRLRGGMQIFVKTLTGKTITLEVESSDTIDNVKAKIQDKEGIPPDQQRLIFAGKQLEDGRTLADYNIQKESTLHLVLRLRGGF
# Sequence of UniProt P36956 (whole entry, looked up): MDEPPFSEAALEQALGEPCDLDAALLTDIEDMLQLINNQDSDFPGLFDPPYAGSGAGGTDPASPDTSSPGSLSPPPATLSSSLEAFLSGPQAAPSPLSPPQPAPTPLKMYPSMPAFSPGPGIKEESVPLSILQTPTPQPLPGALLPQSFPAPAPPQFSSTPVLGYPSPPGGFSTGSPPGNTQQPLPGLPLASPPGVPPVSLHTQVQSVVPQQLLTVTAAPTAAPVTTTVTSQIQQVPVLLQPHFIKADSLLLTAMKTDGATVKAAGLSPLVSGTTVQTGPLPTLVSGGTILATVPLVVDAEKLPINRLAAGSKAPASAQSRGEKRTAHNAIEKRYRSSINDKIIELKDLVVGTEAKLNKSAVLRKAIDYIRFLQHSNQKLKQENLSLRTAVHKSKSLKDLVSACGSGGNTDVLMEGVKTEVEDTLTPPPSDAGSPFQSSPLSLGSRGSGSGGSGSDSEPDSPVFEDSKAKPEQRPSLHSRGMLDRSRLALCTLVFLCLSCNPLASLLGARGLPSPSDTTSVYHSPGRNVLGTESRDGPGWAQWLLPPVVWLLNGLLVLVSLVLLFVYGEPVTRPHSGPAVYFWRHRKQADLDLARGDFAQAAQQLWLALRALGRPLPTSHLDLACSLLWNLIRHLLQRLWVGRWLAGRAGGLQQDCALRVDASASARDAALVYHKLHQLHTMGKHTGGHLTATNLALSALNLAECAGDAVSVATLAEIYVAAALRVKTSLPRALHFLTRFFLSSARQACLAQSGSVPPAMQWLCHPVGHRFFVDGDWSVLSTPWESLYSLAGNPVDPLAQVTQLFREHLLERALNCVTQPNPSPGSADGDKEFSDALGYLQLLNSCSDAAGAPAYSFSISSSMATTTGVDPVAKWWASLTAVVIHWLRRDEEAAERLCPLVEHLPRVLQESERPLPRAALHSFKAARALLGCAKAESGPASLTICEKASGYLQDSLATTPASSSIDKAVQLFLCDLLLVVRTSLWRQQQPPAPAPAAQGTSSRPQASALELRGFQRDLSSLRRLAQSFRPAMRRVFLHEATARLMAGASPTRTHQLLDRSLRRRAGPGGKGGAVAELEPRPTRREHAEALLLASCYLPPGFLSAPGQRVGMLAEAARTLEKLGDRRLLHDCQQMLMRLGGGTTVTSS
# Sequence of UniProt Q9NVR5 (whole entry, looked up): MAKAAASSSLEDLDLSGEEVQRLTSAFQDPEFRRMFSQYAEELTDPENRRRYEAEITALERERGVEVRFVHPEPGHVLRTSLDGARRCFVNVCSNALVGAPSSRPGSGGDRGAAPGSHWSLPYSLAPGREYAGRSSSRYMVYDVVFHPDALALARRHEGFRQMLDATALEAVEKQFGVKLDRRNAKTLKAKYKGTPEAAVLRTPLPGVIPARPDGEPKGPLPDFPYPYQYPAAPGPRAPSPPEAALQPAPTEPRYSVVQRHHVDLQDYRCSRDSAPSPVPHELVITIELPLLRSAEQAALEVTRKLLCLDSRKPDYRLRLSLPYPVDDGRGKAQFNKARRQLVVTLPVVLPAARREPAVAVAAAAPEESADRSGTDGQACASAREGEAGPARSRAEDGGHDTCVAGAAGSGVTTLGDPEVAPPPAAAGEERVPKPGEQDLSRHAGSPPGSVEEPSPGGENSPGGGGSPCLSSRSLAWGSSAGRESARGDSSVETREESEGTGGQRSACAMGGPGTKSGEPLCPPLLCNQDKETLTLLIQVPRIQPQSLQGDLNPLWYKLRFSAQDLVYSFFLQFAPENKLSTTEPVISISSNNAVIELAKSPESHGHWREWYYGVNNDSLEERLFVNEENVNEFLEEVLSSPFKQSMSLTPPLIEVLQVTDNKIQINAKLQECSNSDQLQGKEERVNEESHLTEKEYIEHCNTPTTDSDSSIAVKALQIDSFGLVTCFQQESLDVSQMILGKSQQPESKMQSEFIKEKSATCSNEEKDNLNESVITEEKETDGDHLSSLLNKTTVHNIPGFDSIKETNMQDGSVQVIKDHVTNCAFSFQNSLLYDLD
# Sequence of UniProt Q9ZU93 (whole entry, looked up): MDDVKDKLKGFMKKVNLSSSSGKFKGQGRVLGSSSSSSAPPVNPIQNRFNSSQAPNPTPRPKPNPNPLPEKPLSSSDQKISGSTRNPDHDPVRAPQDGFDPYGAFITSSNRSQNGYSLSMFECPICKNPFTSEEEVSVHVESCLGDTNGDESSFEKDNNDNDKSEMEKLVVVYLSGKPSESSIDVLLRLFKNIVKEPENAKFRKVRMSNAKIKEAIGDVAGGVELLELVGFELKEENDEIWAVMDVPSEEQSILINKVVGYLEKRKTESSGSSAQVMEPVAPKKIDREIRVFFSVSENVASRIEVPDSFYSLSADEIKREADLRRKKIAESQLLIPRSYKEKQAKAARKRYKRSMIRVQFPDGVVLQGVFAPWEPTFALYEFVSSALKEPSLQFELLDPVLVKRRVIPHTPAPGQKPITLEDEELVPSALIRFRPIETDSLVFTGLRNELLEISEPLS
Molecule,target or system,test,system,conditions,scale,measurement,value
GRIN2A fragment S1459A (sequence not shown),SNX27 fragment (Rattus norvegicus),ITC,,,,molecule per partner,1.1
ARTKQTARKSTG (histone H3 peptide 1-12; K4me1),"Ehd3 (Oryza sativa, UniProt Q6ZJM9)",ITC,peptide,,,molecule per partner,0.75
DLDSDDEY (TELO2 488-494 (Homo sapiens); pS491),"DNAAF2 73-197 (Homo sapiens, UniProt Q9NVR5)",ITC,peptide,,,molecule per partner,0.6
colistin,Escherichia coli,broth microdilution,clinical isolate RKI-No_443/16,,,MIC,4 µg/mL
"TERLVLRLNRKKKKVSWKDGTVDNE (INH3 27-51 (Arabidopsis thaliana, UniProt Q8S8F7))","PUX4 (Arabidopsis thaliana, UniProt Q8RWU7)",ITC,peptide,,,molecule per partner,1.2 ± 0.1
ING1 PHD finger (Arabidopsis thaliana),"histone H3 1-10, K4me3",ITC,,,,molecule per partner,1.06
"DPSDYAEPMDAVVKPRNEEENIYSVPHDS (ARHGAP35 residues 1083-1111; pY1087/pY1105, N-acetyl, C-amide)","RASA1 174-444 C236S/C261S/C372S/C402S (Homo sapiens, UniProt P20936)",ITC,peptide,,,molecule per partner,1.45 and 1.36 and 1.41
YAGSDSDLDTDDEFVPY (TELO2 483-497 (Homo sapiens); pT491),PIH1D1,ITC,peptide,,,molecule per partner,0.7
"PUX2 (Arabidopsis thaliana, UniProt Q9ZU93)","UBQ10 mature (Arabidopsis thaliana, UniProt Q8H159)",ITC,,25 °C,,molecule per partner,0.91 ± 0.1
B1 (Mapk14 I275G),"T1, Tab1 residues 384-412 (Mus musculus)",ITC,,,,molecule per partner,0.8
B2 (ING2 189-262 Y208A),"histone H3 1-10, K4me3",ITC,,,,molecule per partner,1.1 ± 0.04
B3 (LMNA 389-572),"SREBF1 227-487 (Homo sapiens, UniProt P36956)",ITC,,,,molecule per partner,1
ING2 PHD finger (Arabidopsis thaliana),"H3 residues 1-10, K4me2",ITC,,,,molecule per partner,1.09 ± 0.02
B4 (human HSP60),PP6C (human),"co-immunoprecipitation, IP-MS",CYB5R4 knockout cells,concentration not given,baseline: CYB5R4 knockout over parental,log2 fold change,0.09
B5 (ING1 163-234 E202A),"histone H3 1-10, K4me3",ITC,,,,molecule per partner,1.02
ARKSTGGKAPRKQ (histone H3 peptide 8-20 (UniProt P68431); K9ac; sequence looked up),"YEATS4 19-159 (Homo sapiens, UniProt O95619)",ITC,peptide,,,molecule per partner,0.98 ± 0.09
B6 (ING1 163-234 M191A),"histone H3 1-10, K4me3",ITC,,,,molecule per partner,1.02 ± 0.01
ASCC3 C-degron,APPBP2/ELOB/ELOC (Homo sapiens),ITC,,,,molecule per partner,0.74
B7 (SEPTIN7),"Septin2 (Mus musculus, UniProt P42208)",co-sedimentation,,,,molecule per partner,1
B8 (BAK1 22-186 G126R),MCL1 lacking N-terminus and transmembrane (Homo sapiens),SEC-MALS,,,,molecule per partner,1
B9 (PVRIG 41-172),"NECTIN2 32-350 (Homo sapiens, UniProt Q92692)",SEC-MALS,,,,molecule per partner,1
RPNESDSDDLDDY (ECD 499-510 (Homo sapiens); pS505),PIH1D1,ITC,peptide,,,molecule per partner,0.7
B10 (mdfA),"clpC N domain 1-150 (Bacillus subtilis, UniProt P37571)",ITC,,,,molecule per partner,0.82 sites
"B11 (TRIP13, human)",PP6C (human),"co-immunoprecipitation, IP-MS",CYB5R4 knockout cells,concentration not given,baseline: CYB5R4 knockout over parental,log2 fold change,-2.4
"EEQWAREIGAQLRRMADDLNAQYER (BBC3 BH3 peptide 68-92 (Homo sapiens); N-acetyl, C-terminal amide)",BCL2L1 BCL-xL ΔC H to A (Homo sapiens),ITC,peptide,,,molecule per partner,1.03

# Some of these lines once more:
Molecule,target or system,test,system,conditions,scale,measurement,value
B3 (LMNA 389-572),"SREBF1 227-487 (Homo sapiens, UniProt P36956)",ITC,,,,molecule per partner,1
GRIN2A fragment S1459A (sequence not shown),SNX27 fragment (Rattus norvegicus),ITC,,,,molecule per partner,1.1
